Assay results pooled from the literature.
Protocols differ between the studies behind these lines. “And” joins repeats or separate records; there may be more than shown. ≈ marks a conversion by molar mass, not a printed value.

SMILES	target or system	test	system	conditions	scale	measurement	result
C#CC[C@@H](N)C(=O)N[C@H](CO)C(=O)N[C@@H](C(=O)N[C@H](CO)C(=O)N[C@H](CCC(=O)O)C(=O)N[C@@H](C(=O)N[C@H](CCC(N)=O)C(=O)N[C@H](CC(C)C)C(=O)N[C@H](CCSC)C(=O)N[C@H](Cc1c[nH]cn1)C(=O)N[C@H](CC(N)=O)C(=O)N[C@H](CC(C)C)C(=O)NCC(=O)N[C@H](CCCCN)C(=O)N[C@H](Cc1c[nH]cn1)C(=O)N[C@H](CC(C)C)C(=O)NCC(=O)N[C@H](CO)C(=O)N[C@H](Cc1c[nH]c2ccccc12)C(=O)N[C@H](CCC(=O)O)C(=O)N[C@H](CCCNC(=N)N)C(=O)N[C@@H](C(=O)N[C@H](Cc1ccc(O)cc1)C(=O)N[C@H](Cc1ccccc1)C(=O)N[C@H](CC(C)C)C(=O)N[C@H](CCCNC(=N)N)C(=O)N[C@H](Cc1ccccc1)C(=O)N[C@H](CCCCN)C(=O)N[C@H](CC(C)C)C(=O)N[C@H](CCC(N)=O)C(=O)N[C@H](CC(C)C)C(=O)N[C@@H](C(N)=O)C(C)C)C(C)C)[C@H](C)CC)C(C)C	hemagglutinin influenza A/California/07/2009 H1N1	–	–	–	–	IC50	140 µM
CC(C)N1CCC(NC2CCN(c3cccc(-c4cc5cc(F)ccc5[nH]4)c3)CC2)CC1	786-0	–	–	–	–	CC50	6.41 µM
CS(=O)(=O)CCCn1c(Cn2c(=O)n(CC(F)(F)F)c3ccncc32)cc2cc(Cl)ccc21	respiratory syncytial virus	RT-qPCR	hospitalized infants 1-24 months, nasal swab	oral, 8 mg/kg daily, day 7, cohort 6-24 months	baseline: placebo	LS mean difference vs placebo	1.7 log10 copies/mL
c1ccc(C(NCCNC(c2ccccc2)c2ccccc2)c2ccccc2)cc1	insulin receptor (rat)	–	–	10 µM	–	inhibition	0%
N.N.[Cl][Pt][Cl]	A2780	cell viability, MTT	–	48 h	–	IC50	8.08 µM
O=C(Cc1ccccc1)NC1CCOC1=O (stereo not drawn)	ExpR1 (Pectobacterium carotovorum)	cellulase activity, antagonist	Pectobacterium carotovorum, single-ExpR1 strain	5 µM, 4 h, with: OHHL 5 µM	–	inhibition	4%
COc1ccc(-n2nc(C(C)=O)s/c2=N\N=C(/C)c2ccc(NC(C)=O)cc2)cc1	MCF7	–	–	5 µM	–	toxicity	93.7% and 78.8%
CC[C@H](C)[C@H](NC(=O)[C@H](C)NC(=O)[C@H](CCCCN)NC(=O)[C@H](CC(C)C)NC(=O)[C@H](C)NC(=O)[C@@H](NC(=O)[C@H](Cc1c[nH]cn1)NC(=O)[C@H](CC(C)C)NC(=O)[C@@H](NC(=O)[C@@H](NC(=O)[C@H](CCCCN)NC(=O)[C@H](C)NC(=O)[C@H](C)NC(=O)[C@H](CO)NC(=O)[C@H](CCCCN)NC(=O)[C@H](Cc1ccccc1)NC(=O)[C@@H](NC(=O)[C@H](CCCCN)NC(=O)[C@H](CC(C)C)NC(=O)[C@H](Cc1ccccc1)NC(=O)[C@H](CO)NC(=O)[C@H](CCCCN)NC(=O)[C@H](Cc1c[nH]c2ccccc12)NC(=O)[C@H](CCCCN)NC(C)=O)[C@@H](C)O)[C@@H](C)O)C(C)C)[C@@H](C)O)C(=O)N[C@@H](CO)C(=O)N[C@@H](CO)C(N)=O	Acinetobacter baumannii	–	IPM-R	87 strains	–	MIC50	4 µg/mL (≈ 1.36 µM)
COc1c(CCC[P+](c2ccccc2)(c2ccccc2)c2ccccc2)cc2c(c1OC)OCO2.[I-]	CCRF-CEM	SRB	–	–	–	Log10GI50	-5.77 log M
O=[N+]([O-])c1cc2c(ccc3c4cc([N+](=O)[O-])oc4ccc23)o1	Mycobacterium bovis BCG	–	1173 P2	–	–	MIC90	0.5 µg/mL (≈ 1.68 µM)
CC(C)CC(=O)OC[C@H]1O[C@@](C#N)(c2ccc3c(N)ncnn23)[C@H](O)[C@@H]1O	NMDA receptor Phencyclidine site (rat)	–	–	20 µM	–	inhibition	3%
CC/C(=C(\c1ccc(O)cc1)c1ccc(OCCN(C)C)cc1)c1ccccc1	MCF7 3xERE-luc, steroid-deprived	ERE luciferase reporter, agonist	–	–	–	EC50	0.02 µM
CCCCC1(CCCC)CN(c2ccccc2)c2cc(SC)c(OCC(=O)N[C@@H](C(=O)NCC(=O)O)c3ccccc3)cc2S(=O)(=O)C1	–	measured: LDL cholesterol	human, serum	10 mg once daily, day 2	–	serum LDL-C	111 mg/dL
COCCC1=C(C(=O)OC)C(c2ccc(Cl)cc2C)C2=C(CC(c3ccc(OC)c(OC)c3)OC2=O)N1 (single isomer, unassigned)	J774.A1	cytotoxicity	–	–	–	EC50	> 20 µM
O=C(Cc1ccccc1I)N[C@H]1CCOC1=O	ExpR1 (Pectobacterium carotovorum)	cellulase activity, antagonist	Pectobacterium carotovorum, single-ExpR1 strain	5 µM, 4 h, with: OHHL 5 µM	–	inhibition	65%
O=C1c2c(O)c(=O)ccn2N([C@@H]2c3ccccc3SCc3c2ccc(F)c3F)[C@@H]2COCCN12	influenza A virus	–	A/WSN/33 (H1N1), BALB/c mouse, lung	subcutaneous, 0.125 mg/kg every 6 h, 24 h	–	lung virus titre	3.68 log10 TCID50/mL
CC[C@H](C)[C@@H]1NC(=O)[C@@H]2CCCN2C(=O)[C@H](CC(C)C)NC(=O)[C@H](CC(C)C)NC(=O)CNC(=O)[C@@H](NC(=O)[C@@H](NC(=O)[C@H](CC(=O)O)NC(=O)CNC(=O)[C@@H](NC(=O)[C@H](C)NC(=O)CNC(=O)[C@H](CCCCN)NC(=O)[C@H](CC(C)C)NC(=O)[C@H](CC(C)C)NC(=O)[C@H](CCCCN)NC(=O)CNC(=O)[C@@H](NC(=O)[C@@H](N)CC(C)C)C(C)C)C(C)C)C(C)C)CSSC[C@@H](C(=O)O)NC1=O	–	RNA-seq, measured: Cacna1i	mouse, traumatic brain injury model, frontal cortex and hippocampus	dose not given	baseline: TBI alone	log2 fold change	-0.654
COc1cc(CCC[P+](c2ccccc2)(c2ccccc2)c2ccccc2)c(OC)c2c1OCO2.[I-]	PC-3	SRB	–	–	–	GI50	-5.81 log M
CN1C(=O)C(C2C3=C(CC(C)(C)CC3=O)Oc3c(O)cccc32)C(=O)N(C)C1=O (stereo not drawn)	3T3-L1 adipocytes	qPCR, measured: ATGL	–	IC20, 14 days	baseline: untreated mature adipocytes	mRNA level	increased
C#CC[C@@H](N)C(=O)N[C@H](CO)C(=O)N[C@@H](C(=O)N[C@H](CO)C(=O)N[C@H](CCC(=O)O)C(=O)N[C@@H](C(=O)N[C@H](CCC(N)=O)C(=O)N[C@H](CC(C)C)C(=O)N[C@H](CCSC)C(=O)N[C@H](Cc1c[nH]cn1)C(=O)N[C@H](CC(N)=O)C(=O)N[C@H](CC(C)C)C(=O)NCC(=O)N[C@H](CCCCN)C(=O)N[C@H](Cc1c[nH]cn1)C(=O)N[C@H](CC(C)C)C(=O)N[C@H](CC(N)=O)C(=O)N[C@H](CO)C(=O)N[C@H](CCSC)C(=O)N[C@H](CCC(=O)O)C(=O)N[C@H](CCCNC(=N)N)C(=O)N[C@@H](C(=O)N[C@H](Cc1ccc(O)cc1)C(=O)N[C@H](C)C(=O)N[C@H](CC(C)C)C(=O)N[C@H](CCCNC(=N)N)C(=O)N[C@H](Cc1ccccc1)C(=O)N[C@H](Cc1c[nH]cn1)C(=O)N[C@H](CC(C)C)C(=O)N[C@H](CCC(N)=O)C(=O)N[C@H](CC(C)C)C(=O)N[C@@H](C(N)=O)C(C)C)C(C)C)[C@H](C)CC)C(C)C	hemagglutinin influenza A/California/07/2009 H1N1	–	–	–	–	IC50	153 µM
CCCCc1ccc(CNc2nc(N(C)C)nc(N(C)C)c2/N=N/c2ccc(Cl)cc2)cc1	Plutella xylostella	leaf dipping	–	3.13 mg/L	–	mortality	33.3%

Excerpt of the above:
SMILES	target or system	test	system	conditions	scale	measurement	result
CC[C@H](C)[C@H](NC(=O)[C@H](C)NC(=O)[C@H](CCCCN)NC(=O)[C@H](CC(C)C)NC(=O)[C@H](C)NC(=O)[C@@H](NC(=O)[C@H](Cc1c[nH]cn1)NC(=O)[C@H](CC(C)C)NC(=O)[C@@H](NC(=O)[C@@H](NC(=O)[C@H](CCCCN)NC(=O)[C@H](C)NC(=O)[C@H](C)NC(=O)[C@H](CO)NC(=O)[C@H](CCCCN)NC(=O)[C@H](Cc1ccccc1)NC(=O)[C@@H](NC(=O)[C@H](CCCCN)NC(=O)[C@H](CC(C)C)NC(=O)[C@H](Cc1ccccc1)NC(=O)[C@H](CO)NC(=O)[C@H](CCCCN)NC(=O)[C@H](Cc1c[nH]c2ccccc12)NC(=O)[C@H](CCCCN)NC(C)=O)[C@@H](C)O)[C@@H](C)O)C(C)C)[C@@H](C)O)C(=O)N[C@@H](CO)C(=O)N[C@@H](CO)C(N)=O	Acinetobacter baumannii	–	IPM-R	87 strains	–	MIC50	4 µg/mL (≈ 1.36 µM)
O=C1c2c(O)c(=O)ccn2N([C@@H]2c3ccccc3SCc3c2ccc(F)c3F)[C@@H]2COCCN12	influenza A virus	–	A/WSN/33 (H1N1), BALB/c mouse, lung	subcutaneous, 0.125 mg/kg every 6 h, 24 h	–	lung virus titre	3.68 log10 TCID50/mL
